# Assay results collected from several papers.
# A part holds a random share of what one study measured. Values joined by “and” are separate records of one study, mostly repeats; a detail may differ. ± marks the error that the study gave.
# Chain of UniProt P46934 (whole entry, looked up): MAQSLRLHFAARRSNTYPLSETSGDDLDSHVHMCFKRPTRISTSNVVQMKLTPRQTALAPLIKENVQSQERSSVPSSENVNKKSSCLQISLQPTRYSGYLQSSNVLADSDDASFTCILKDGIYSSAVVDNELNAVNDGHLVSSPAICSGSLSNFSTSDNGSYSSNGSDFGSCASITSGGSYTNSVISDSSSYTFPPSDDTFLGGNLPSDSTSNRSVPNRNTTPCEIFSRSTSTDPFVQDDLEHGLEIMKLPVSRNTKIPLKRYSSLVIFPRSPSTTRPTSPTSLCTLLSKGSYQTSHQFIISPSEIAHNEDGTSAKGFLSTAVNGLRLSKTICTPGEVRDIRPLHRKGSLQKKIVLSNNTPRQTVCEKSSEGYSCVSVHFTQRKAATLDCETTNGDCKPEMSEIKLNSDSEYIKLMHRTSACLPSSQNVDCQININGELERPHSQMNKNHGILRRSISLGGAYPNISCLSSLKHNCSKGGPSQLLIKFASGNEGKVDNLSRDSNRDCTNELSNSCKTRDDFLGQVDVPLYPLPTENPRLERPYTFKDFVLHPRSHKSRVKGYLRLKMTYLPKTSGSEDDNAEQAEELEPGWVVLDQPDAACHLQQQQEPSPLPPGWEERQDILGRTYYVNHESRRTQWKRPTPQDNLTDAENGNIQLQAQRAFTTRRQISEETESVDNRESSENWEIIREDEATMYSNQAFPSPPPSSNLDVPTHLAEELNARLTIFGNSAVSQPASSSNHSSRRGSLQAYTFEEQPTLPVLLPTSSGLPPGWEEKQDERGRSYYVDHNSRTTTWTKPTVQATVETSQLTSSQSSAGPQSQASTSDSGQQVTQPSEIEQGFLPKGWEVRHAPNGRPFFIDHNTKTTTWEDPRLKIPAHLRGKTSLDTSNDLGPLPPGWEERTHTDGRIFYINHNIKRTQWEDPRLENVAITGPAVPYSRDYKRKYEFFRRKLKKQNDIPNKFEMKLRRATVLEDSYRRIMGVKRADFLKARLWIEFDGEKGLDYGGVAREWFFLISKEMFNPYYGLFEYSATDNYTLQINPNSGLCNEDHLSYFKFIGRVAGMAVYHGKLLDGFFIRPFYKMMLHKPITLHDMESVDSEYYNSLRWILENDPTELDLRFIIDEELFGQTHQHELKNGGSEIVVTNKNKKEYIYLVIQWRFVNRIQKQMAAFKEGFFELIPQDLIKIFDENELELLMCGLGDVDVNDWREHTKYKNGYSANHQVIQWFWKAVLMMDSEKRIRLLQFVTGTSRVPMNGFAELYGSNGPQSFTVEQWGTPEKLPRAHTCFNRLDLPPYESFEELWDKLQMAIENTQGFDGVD
# Chain of UniProt Q12809 (whole entry, looked up): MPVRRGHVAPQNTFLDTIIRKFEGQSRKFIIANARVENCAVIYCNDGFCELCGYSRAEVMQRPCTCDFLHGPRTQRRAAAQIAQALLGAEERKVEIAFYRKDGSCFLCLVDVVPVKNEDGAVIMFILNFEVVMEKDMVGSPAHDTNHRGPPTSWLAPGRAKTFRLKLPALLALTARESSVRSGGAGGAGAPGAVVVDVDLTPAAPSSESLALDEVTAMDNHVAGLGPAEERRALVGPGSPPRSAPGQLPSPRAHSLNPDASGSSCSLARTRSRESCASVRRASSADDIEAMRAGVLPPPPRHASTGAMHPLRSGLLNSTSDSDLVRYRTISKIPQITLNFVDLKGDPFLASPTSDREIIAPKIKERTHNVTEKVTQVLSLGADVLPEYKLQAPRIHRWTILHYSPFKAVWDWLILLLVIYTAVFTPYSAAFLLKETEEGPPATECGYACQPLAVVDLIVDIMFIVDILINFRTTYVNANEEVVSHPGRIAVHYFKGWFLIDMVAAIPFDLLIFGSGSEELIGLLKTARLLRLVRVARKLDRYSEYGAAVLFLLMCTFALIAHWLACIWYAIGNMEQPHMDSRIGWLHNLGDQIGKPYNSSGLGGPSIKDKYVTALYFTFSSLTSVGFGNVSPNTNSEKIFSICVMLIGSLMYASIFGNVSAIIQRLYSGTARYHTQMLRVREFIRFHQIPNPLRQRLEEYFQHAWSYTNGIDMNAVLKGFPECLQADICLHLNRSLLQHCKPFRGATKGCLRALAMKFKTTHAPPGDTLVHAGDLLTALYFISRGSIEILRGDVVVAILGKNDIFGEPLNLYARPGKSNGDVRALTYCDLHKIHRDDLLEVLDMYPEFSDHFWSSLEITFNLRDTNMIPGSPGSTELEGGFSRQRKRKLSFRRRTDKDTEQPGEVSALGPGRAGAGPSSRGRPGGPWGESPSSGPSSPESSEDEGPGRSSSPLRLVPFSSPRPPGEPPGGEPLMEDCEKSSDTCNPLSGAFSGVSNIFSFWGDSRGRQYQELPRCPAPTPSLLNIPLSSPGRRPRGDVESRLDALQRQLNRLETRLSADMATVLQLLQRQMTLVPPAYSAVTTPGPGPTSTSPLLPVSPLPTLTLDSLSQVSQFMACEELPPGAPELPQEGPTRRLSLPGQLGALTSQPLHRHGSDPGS

# Set 1
# Compound: Cc1ncsc1-c1ccc(C(CO)NC(=O)C2CC(O)CN2C(=O)C(C(C)C)n2cc(-c3ccc(COc4c(-c5c(C)c(F)cc6[nH]ncc56)c(C5CC5)cc5c(N6CC7CC6CN7)nc(OC6CCOCC6)nc45)cc3)nn2)cc1 (stereo not shown)
# Time: 6 days
cell line,observed,method,tested at,relative to,viability
GP5d,cell growth or viability,ATP luminescence,10 nM,,46.5% and 33.2% and 52.1% and 39.6%
AsPC-1,,CellTiter-Glo,1 nM,DMSO,101% and 92.6% and 105%
SK-CO-1,cell growth or viability,ATP luminescence,30 nM,,113% and 102% and 101% and 106%
LCLC-97TM1,cell growth or viability,ATP luminescence,0.1 µM,,94.6% and 92.8% and 104% and 97.6%
SK-CO-1,cell growth or viability,ATP luminescence,300 pM,,104% and 111% and 106%
HT-29,cell growth or viability,ATP luminescence,300 pM,,99.1% and 116% and 101% and 100%
T24,cell growth or viability,ATP luminescence,1 µM,,98.9% and 97.4% and 98.7% and 94.9%

# Set 2
# Structure (SMILES): Cc1ccc(O)c(C)c1-c1cnc2[nH]c(-c3cnc(N4CCC(CN5CCN(c6ccc(NC7CCC(=O)NC7=O)cc6F)CC5)CC4)nc3)cc2c1C#N (stereo not shown)
# Medium: plasma
# Route: oral
host,dose,Cmax [ng/mL]
"Beagle dog, male",5 mg/kg,90
male cynomolgus monkey,10 mg/kg,89
"Sprague-Dawley rat, male",10 mg/kg,469

# Other studies, line by line
Compound,tested on,test,system,conditions,quantity,result
CCONC(=O)/C=C/CNCCCCN1c2cc(Cl)ccc2CCc2cnn(C)c21.O=C(O)/C=C\C(=O)O,,,human liver microsomes,1 µM,intrinsic clearance,43 ± 9.9 µL/min/mg protein
CCN1/C(=C/C=C2\CCCC(/C=C/C3=[N+](CC)c4ccccc4C3(C)C)=C2NCCCCN2CCC(C(=O)c3ccc(NS(C)(=O)=O)cc3)CC2)C(C)(C)c2ccccc21,"Voltage-gated inwardly rectifying potassium channel KCNH2 (KCNH2, Homo sapiens, UniProt Q12809)","ligand displacement, radioligand",HEK293,"80 min, cell membranes",IC50,30 nM
COC(=O)CCCNCCCN1c2ccccc2CCc2ccc(Cl)cc21.COC(=O)CCCNCCCN1c2ccccc2CCc2ccc(Cl)cc21.O=C(O)/C=C/C(=O)O,"E3 ubiquitin-protein ligase NEDD4 (Homo sapiens, UniProt P46934)","enzyme activity, inhibitor, TR-FRET",,33 µM,inhibition,29.2%
FC(F)(F)c1ccc(C2=NOC3(NC(c4ccccc4)=NO3)N2c2ccccc2)cc1 (stereo not shown),Huh-7,"cell growth or viability, ATP luminescence",,"20 µM, 72 h",viability,~60%
Cn1ncc2c1N(CCCCNC/C=C/C#N)c1cc(Cl)ccc1CC2.O=C(O)/C=C\C(=O)O,,,human liver microsomes,1 µM,intrinsic clearance,89.6 ± 14.7 µL/min/mg protein
N#C/C=C/CNCCCCN1c2ccccc2CCc2ccc(Cl)cc21.O=C(O)/C=C\C(=O)O,,,mouse liver microsomes,1 µM,intrinsic clearance,175 ± 93.1 µL/min/mg protein

# A few entries again (set 1):
cell line,observed,method,tested at,relative to,viability
SK-CO-1,cell growth or viability,ATP luminescence,30 nM,,113% and 102% and 101% and 106%
LCLC-97TM1,cell growth or viability,ATP luminescence,0.1 µM,,94.6% and 92.8% and 104% and 97.6%
